Published values gathered from unrelated publications.
Parts stem from different laboratories: compare values within a part only.
Sequence of UniProt P42336 (whole entry, unmodified, looked up): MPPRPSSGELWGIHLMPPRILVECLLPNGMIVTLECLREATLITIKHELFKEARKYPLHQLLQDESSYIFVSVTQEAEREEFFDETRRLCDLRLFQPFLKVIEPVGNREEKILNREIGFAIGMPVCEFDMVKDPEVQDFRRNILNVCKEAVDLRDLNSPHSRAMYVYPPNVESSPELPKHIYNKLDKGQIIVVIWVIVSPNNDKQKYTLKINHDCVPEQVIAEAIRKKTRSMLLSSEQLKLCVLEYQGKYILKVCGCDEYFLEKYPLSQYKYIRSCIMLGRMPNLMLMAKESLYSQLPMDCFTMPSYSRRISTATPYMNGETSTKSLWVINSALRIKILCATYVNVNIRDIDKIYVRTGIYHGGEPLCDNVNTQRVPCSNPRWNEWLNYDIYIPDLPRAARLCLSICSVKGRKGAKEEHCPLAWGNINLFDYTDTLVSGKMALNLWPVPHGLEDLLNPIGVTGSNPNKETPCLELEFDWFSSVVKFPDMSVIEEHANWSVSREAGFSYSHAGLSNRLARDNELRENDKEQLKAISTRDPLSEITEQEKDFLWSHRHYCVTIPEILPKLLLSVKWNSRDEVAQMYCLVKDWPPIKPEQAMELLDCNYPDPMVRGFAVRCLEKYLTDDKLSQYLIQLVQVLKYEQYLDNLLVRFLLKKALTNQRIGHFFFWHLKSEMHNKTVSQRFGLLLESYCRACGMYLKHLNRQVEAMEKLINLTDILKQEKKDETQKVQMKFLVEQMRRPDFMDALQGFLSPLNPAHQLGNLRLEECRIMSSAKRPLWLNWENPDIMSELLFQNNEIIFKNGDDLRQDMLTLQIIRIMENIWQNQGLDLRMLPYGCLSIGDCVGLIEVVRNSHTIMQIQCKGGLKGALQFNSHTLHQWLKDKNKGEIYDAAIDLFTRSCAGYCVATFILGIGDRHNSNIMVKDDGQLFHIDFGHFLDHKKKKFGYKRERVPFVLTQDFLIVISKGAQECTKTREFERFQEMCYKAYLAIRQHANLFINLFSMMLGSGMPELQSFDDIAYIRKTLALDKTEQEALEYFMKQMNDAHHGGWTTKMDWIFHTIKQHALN
Sequence of UniProt O75385 (whole entry, looked up): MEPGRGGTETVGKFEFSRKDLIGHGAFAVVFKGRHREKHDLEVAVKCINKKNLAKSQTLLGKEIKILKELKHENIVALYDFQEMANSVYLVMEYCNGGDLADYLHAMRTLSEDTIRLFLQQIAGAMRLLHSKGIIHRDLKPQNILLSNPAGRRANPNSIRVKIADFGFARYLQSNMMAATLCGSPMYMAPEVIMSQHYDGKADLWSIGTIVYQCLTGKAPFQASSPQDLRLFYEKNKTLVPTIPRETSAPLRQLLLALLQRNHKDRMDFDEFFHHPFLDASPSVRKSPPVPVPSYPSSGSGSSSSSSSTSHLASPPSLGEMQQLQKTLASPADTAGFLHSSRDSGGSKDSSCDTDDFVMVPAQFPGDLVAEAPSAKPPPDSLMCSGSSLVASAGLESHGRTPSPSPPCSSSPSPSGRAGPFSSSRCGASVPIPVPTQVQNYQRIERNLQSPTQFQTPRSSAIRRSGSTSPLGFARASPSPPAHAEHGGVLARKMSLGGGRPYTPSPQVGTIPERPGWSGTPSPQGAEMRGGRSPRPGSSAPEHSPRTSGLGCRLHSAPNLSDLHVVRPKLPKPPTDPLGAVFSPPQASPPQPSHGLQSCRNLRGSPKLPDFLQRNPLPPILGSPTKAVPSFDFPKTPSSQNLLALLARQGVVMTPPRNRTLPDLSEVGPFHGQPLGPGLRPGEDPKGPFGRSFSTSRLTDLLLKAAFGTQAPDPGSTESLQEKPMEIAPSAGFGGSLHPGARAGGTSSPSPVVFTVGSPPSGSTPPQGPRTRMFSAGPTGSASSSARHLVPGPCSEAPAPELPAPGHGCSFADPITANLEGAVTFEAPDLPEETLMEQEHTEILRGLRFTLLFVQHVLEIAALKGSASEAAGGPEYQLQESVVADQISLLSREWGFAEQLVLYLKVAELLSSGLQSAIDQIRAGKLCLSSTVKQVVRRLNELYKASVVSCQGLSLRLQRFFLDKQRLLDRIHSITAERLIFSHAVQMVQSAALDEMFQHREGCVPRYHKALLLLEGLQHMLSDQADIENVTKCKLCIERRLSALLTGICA
Sequence of UniProt P41743 (whole entry, looked up): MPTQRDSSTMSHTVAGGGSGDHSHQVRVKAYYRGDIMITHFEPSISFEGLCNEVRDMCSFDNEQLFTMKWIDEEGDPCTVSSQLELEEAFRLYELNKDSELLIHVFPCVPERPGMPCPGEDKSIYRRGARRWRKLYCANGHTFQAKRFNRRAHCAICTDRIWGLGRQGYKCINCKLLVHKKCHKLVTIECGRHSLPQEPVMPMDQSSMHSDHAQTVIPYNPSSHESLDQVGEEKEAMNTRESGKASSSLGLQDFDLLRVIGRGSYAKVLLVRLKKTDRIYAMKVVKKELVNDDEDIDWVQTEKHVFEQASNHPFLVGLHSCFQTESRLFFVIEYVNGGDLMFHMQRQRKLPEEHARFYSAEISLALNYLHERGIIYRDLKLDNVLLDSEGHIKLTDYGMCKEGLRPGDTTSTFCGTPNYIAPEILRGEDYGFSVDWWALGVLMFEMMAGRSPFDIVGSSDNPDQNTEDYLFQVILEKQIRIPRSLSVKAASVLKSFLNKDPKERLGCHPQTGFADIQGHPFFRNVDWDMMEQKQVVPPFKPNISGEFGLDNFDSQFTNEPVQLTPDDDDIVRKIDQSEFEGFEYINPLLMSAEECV
Sequence of UniProt Q12852 (whole entry, looked up): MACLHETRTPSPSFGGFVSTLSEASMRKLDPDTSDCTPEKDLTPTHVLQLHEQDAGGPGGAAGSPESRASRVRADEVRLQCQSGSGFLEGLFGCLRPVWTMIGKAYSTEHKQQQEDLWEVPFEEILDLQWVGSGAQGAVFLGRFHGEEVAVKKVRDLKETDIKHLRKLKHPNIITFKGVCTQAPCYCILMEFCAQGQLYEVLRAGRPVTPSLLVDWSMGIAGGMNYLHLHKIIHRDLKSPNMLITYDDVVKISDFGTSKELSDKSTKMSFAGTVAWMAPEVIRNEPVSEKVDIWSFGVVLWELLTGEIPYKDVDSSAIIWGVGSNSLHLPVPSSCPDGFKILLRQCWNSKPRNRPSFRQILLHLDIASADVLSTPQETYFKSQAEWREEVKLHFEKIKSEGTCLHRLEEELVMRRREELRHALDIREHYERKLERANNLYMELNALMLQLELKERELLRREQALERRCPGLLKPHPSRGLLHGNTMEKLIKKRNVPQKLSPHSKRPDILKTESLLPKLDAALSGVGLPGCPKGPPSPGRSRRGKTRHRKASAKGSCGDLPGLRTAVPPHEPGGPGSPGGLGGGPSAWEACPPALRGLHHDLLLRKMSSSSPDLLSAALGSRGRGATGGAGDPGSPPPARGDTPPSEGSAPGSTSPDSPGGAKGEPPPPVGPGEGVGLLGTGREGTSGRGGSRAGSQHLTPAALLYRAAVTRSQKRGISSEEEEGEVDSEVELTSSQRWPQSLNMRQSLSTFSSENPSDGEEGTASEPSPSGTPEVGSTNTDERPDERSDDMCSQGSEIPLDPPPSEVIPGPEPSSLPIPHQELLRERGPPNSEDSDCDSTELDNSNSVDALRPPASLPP

Set 1
Cell line: HaCaT
Tested at: 100 µM
Time: 36 h
SMILES | viability [%]
CN(C)c1nc(N(C)C)nc(N(C)C)n1 | 81.5
Cc1c(O)cccc1C(=O)N[C@@H](CSc1ccccc1)[C@H](O)CN1C[C@H]2CCCC[C@H]2C[C@H]1C(=O)NC(C)(C)C | 13.1
O=C(Nc1ccccc1)OCC(CN1CCCCC1)OC(=O)Nc1ccccc1 (centres unmarked) | 5.73
CC(=O)Nc1cccc(-n2c(=O)n(C3CC3)c(=O)c3c(Nc4ccc(I)cc4F)n(C)c(=O)c(C)c32)c1 | 74
CN1CC(=O)N2[C@H](c3ccc4c(c3)OCO4)c3[nH]c4ccccc4c3C[C@@H]2C1=O | 86.4
CN(C)[C@@H]1C(O)=C(C(N)=O)C(=O)[C@@]2(O)C(O)=C3C(=O)c4c(O)cccc4[C@@](C)(O)[C@H]3C[C@@H]12 | 93.8
C[C@@H](NCCc1ccc(O)cc1)[C@@H](O)c1ccc(O)cc1 (racemic) | 88.4
O=[N+]([O-])c1ccc(O)c2ncccc12 | 7.59
CC1=C(C)C(=O)C(C(CCCCCC(=O)O)c2ccccc2)=C(C)C1=O (centres unmarked) | 115
CC(=O)Oc1c(C)c(C)c2c(c1C)CCC(C)(CCC[C@H](C)CCC[C@H](C)CCCC(C)C)O2 (some centres unmarked) | 91.8

Set 2
SMILES: CSc1cccnc1N1CCN(Cc2nc3ccccc3[nH]2)CC1
Method: competition with immobilised ligand
Tested at: 1 µM
target | read-out | remaining binding [%]
Tyrosine-protein kinase ABL1, phosphorylated (ABL1, Homo sapiens, UniProt P00519, H396P) | cell-free assay | 77
Fibroblast growth factor receptor 3 (FGFR3, Homo sapiens, UniProt P22607) | cell-free assay | 100
Myosin light chain kinase (MYLK3, Homo sapiens, UniProt Q32MK0) | cell-free assay | 100
Transient receptor potential cation channel subfamily M member 6 (TRPM6, Homo sapiens, UniProt Q9BX84) | cell-free assay | 100
Serine/threonine-protein kinase DCLK1 (DCLK1, Homo sapiens, UniProt O15075) | cell-free assay | 82
Phosphatidylinositol 4,5-bisphosphate 3-kinase catalytic subunit alpha isoform (PIK3CA, Homo sapiens, UniProt P42336, M1043I) | cell-free assay | 94
Serine/threonine-protein kinase PLK4 (PLK4, Homo sapiens, UniProt O00444) | cell-free assay | 84
Mitogen-activated protein kinase kinase kinase 12 (MAP3K12, Homo sapiens, UniProt Q12852) | cell-free assay | 74
Phosphatidylinositol 4,5-bisphosphate 3-kinase catalytic subunit alpha isoform (PIK3CA, Homo sapiens, UniProt P42336, I800L) | cell-free assay | 77
Homeodomain-interacting protein kinase 4 (HIPK4, Homo sapiens, UniProt Q8NE63) | cell-free assay | 100
Ribosomal protein S6 kinase alpha-6, N-terminal kinase domain (RPS6KA6, Homo sapiens, UniProt Q9UK32) | cell-free assay | 81
Muscle, skeletal receptor tyrosine-protein kinase (MUSK, Homo sapiens, UniProt O15146) | cell-free assay | 100
Receptor-type tyrosine-protein kinase FLT3 (FLT3, Homo sapiens, UniProt P36888, F691L/ITD) | cell-free assay | 100
Protein kinase C iota type (PRKCI, Homo sapiens, UniProt P41743) | cell-free assay | 100
Serine/threonine-protein kinase 32A (STK32A, Homo sapiens, UniProt Q8WU08) | binding | 100
Rhodopsin kinase GRK1 (GRK1, Homo sapiens, UniProt Q15835) | cell-free assay | 100
Protein kinase C theta type (PRKCQ, Homo sapiens, UniProt Q04759) | cell-free assay | 100
Serine/threonine-protein kinase 32B (STK32B, Homo sapiens, UniProt Q9NY57) | cell-free assay | 100
Serine/threonine-protein kinase WNK1 (WNK1, Homo sapiens, UniProt Q9H4A3) | cell-free assay | 100
Serine/threonine-protein kinase Nek2 (NEK2, Homo sapiens, UniProt P51955) | cell-free assay | 96
Ephrin type-A receptor 4 (EPHA4, Homo sapiens, UniProt P54764) | cell-free assay | 100
STE20-like serine/threonine-protein kinase (SLK, Homo sapiens, UniProt Q9H2G2) | cell-free assay | 100
Mast/stem cell growth factor receptor Kit, autoinhibited (KIT, Homo sapiens, UniProt P10721) | cell-free assay | 72
Serine/threonine-protein kinase ULK1 (ULK1, Homo sapiens, UniProt O75385) | cell-free assay | 88
eIF-2-alpha kinase GCN2, C-terminal kinase domain (EIF2AK4, Homo sapiens, UniProt Q9P2K8, S808G) | cell-free assay | 100

Set 3
Target: Calcium/calmodulin-dependent protein kinase type II subunit alpha (CAMK2A, Homo sapiens, UniProt Q9UQM7)
Sequence of UniProt Q9UQM7 (whole entry, looked up): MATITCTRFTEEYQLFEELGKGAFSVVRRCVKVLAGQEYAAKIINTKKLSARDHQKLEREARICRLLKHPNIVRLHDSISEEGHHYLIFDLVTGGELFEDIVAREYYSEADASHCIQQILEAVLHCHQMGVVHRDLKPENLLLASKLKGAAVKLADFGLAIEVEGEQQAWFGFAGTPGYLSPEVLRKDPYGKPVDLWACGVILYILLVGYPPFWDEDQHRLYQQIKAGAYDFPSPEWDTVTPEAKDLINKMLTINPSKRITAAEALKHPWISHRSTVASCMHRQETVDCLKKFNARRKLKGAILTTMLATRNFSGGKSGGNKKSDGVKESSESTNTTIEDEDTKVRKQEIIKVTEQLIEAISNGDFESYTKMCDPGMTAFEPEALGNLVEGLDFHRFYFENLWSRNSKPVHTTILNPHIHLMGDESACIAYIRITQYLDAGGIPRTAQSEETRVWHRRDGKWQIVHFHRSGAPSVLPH
Read-out: enzyme activity
Mode: inhibitor
Tested at: 10 µM
SMILES | inhibition [%]
CC(=O)Oc1ccc(C(=C2CCCCC2)c2ccc(OC(C)=O)cc2)cc1 | -8
C[C@H](C(=O)O)c1cccc(C(=O)c2ccccc2)c1 | 0
CC(C)=CCc1c(O)cc2oc3cc(O)c(O)c(CC=C(C)C)c3c(=O)c2c1O | 17
Nc1ncnc2c1ncn2[C@H]1C[C@H](O)[C@@H](CO)O1 | -1
CC(=O)OC[C@@]12CC[C@@H](C)[C@](C)(CCC3=CC(=O)OC3)[C@H]1C[C@H](O)C=C2CO | -14
CCCCCOC(=O)Nc1nc(=O)n([C@@H]2O[C@H](C)[C@@H](O)[C@H]2O)cc1F | 2
Oc1cc(O)c2c(c1)O[C@H](c1cc(O)c(O)c(O)c1)[C@H](O)C2 | 10
CC(=O)OC(C)(C)CCC(=O)[C@](C)(O)[C@H]1[C@H](O)C[C@@]2(C)[C@@H]3CC=C4[C@@H](C[C@H](O)[C@@H](O)C4(C)C)[C@]3(C)C(=O)C[C@]12C | 7
CCCCCCCC/C=C\CCCCCCCC(=O)OCC(O)CO (centres unmarked) | -4
COc1ccc(-c2cc(=O)c3c(O)cc(O)c(-c4cc(-c5cc(=O)c6c(O)cc(O)cc6o5)ccc4OC)c3o2)cc1 | 10
N=C(N)N | -9
COC(=O)C1=C(C)NC(C)=C(C(=O)OC(C)C)C1c1cccc2nonc12 (centres unmarked) | -2
O=C1[C@@H]2[C@H]3CC[C@H](C3)[C@@H]2C(=O)N1C[C@@H]1CCCC[C@H]1CN1CCN(c2nsc3ccccc23)CC1 | -8

Set 4
Structure (SMILES): CN1CCN(C(=O)c2ccc(NC(=O)Nc3ccc(N(C)c4ccnc(Nc5ccc(CS(C)(=O)=O)cc5)n4)cc3)cc2)CC1
Method: competitive binding panel
Tested at: 1 µM
Reference: vehicle
target | refers to | remaining binding [%]
Serine/threonine-protein kinase ULK1 (ULK1, Homo sapiens, UniProt O75385) | – | 79
Phosphatidylinositol 4-kinase beta (PI4KB, Homo sapiens, UniProt Q9UBF8) | PIK4CB | 97
Casein kinase I isoform alpha (CSNK1A1, Homo sapiens, UniProt P48729) | – | 85
Rhodopsin kinase GRK7 (GRK7, Homo sapiens, UniProt Q8WTQ7) | – | 100
Serine/threonine-protein kinase MARK1 (MARK1, Homo sapiens, UniProt Q9P0L2) | – | 44
Mitogen-activated protein kinase kinase kinase 10 (MAP3K10, Homo sapiens, UniProt Q02779) | MLK2 | 82
Calcium/calmodulin-dependent protein kinase type 1 (CAMK1, Homo sapiens, UniProt Q14012) | – | 100
Mitogen-activated protein kinase kinase kinase kinase 1 (MAP4K1, Homo sapiens, UniProt Q92918) | HPK1 | 2.6

Repeated from above (set 2):
target | read-out | remaining binding [%]
Protein kinase C iota type (PRKCI, Homo sapiens, UniProt P41743) | cell-free assay | 100
Serine/threonine-protein kinase 32A (STK32A, Homo sapiens, UniProt Q8WU08) | binding | 100
Rhodopsin kinase GRK1 (GRK1, Homo sapiens, UniProt Q15835) | cell-free assay | 100
Protein kinase C theta type (PRKCQ, Homo sapiens, UniProt Q04759) | cell-free assay | 100
Serine/threonine-protein kinase 32B (STK32B, Homo sapiens, UniProt Q9NY57) | cell-free assay | 100
Serine/threonine-protein kinase WNK1 (WNK1, Homo sapiens, UniProt Q9H4A3) | cell-free assay | 100
Serine/threonine-protein kinase Nek2 (NEK2, Homo sapiens, UniProt P51955) | cell-free assay | 96
Ephrin type-A receptor 4 (EPHA4, Homo sapiens, UniProt P54764) | cell-free assay | 100
STE20-like serine/threonine-protein kinase (SLK, Homo sapiens, UniProt Q9H2G2) | cell-free assay | 100
